Results collected from several papers.
Numbers after ± are the reported error.
DRD4: D(4) dopamine receptor (DRD4, Homo sapiens, UniProt P21917)
Chain of UniProt P21917 (whole entry, looked up): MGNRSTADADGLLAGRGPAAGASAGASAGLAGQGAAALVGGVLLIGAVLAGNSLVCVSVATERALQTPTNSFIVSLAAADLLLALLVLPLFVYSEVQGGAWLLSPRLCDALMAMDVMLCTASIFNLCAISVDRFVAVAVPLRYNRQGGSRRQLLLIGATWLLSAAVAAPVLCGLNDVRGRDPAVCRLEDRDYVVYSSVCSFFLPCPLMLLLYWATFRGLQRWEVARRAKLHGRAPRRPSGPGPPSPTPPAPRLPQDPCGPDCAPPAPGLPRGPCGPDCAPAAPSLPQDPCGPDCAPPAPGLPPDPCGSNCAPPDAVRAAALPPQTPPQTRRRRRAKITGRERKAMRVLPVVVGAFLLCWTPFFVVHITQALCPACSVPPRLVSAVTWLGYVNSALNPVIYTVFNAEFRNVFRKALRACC
GSPT1: Eukaryotic peptide chain release factor GTP-binding subunit ERF3A (GSPT1, Homo sapiens, UniProt P15170)
Chain of UniProt P15170 (whole entry, looked up): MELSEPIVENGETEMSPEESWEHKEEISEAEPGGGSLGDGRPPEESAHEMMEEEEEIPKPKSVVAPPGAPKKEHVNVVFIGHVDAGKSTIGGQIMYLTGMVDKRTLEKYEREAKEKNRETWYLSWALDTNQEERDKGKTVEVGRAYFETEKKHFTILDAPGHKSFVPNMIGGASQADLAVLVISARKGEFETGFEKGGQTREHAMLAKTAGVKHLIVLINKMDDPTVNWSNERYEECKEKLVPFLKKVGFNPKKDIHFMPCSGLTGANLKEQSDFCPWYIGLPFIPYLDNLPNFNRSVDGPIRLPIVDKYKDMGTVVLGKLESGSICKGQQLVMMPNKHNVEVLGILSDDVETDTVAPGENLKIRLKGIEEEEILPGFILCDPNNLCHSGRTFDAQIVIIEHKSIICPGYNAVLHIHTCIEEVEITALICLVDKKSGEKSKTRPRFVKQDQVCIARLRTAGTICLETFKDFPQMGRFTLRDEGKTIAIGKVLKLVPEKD
CNR1: Cannabinoid receptor 1 (CNR1, Homo sapiens, UniProt P21554)
Chain of UniProt P21554 (whole entry, looked up): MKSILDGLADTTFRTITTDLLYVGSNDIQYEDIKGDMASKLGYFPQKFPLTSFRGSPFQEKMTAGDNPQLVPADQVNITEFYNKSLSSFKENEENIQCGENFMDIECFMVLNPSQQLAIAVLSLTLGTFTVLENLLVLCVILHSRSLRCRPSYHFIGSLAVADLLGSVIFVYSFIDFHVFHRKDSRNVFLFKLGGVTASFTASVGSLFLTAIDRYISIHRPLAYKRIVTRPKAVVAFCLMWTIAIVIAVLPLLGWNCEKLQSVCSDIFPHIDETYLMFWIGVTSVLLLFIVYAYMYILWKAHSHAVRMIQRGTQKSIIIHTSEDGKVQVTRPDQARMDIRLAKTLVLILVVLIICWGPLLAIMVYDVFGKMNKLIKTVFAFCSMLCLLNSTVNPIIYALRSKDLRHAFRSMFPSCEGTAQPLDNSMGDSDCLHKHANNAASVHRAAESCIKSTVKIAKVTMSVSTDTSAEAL
Chain of UniProt P35821 (whole entry, looked up): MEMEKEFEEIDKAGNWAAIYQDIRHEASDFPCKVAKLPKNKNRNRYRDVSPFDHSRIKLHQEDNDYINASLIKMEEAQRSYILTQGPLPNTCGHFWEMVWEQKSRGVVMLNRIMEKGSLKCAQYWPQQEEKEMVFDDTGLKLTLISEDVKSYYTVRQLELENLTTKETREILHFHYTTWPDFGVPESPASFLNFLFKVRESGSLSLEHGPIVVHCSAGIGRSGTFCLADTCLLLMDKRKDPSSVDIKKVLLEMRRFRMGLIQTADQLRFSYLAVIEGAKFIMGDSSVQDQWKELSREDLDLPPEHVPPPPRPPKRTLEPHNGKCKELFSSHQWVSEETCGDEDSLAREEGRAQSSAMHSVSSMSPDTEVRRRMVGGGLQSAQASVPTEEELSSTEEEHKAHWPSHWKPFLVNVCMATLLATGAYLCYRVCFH
Chain of UniProt Q96SW2 (whole entry, looked up): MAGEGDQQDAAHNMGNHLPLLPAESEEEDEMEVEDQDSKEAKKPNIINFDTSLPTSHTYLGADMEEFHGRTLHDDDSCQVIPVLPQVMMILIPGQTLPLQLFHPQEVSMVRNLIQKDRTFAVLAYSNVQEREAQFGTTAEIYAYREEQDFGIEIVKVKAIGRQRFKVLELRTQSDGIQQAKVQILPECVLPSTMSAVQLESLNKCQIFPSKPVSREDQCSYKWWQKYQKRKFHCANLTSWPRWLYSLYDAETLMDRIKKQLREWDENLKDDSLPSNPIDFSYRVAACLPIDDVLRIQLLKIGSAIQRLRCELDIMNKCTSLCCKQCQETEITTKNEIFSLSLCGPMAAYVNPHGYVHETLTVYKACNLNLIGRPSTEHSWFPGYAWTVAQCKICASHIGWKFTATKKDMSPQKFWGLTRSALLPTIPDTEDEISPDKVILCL
Chain of UniProt P06239 (whole entry, looked up): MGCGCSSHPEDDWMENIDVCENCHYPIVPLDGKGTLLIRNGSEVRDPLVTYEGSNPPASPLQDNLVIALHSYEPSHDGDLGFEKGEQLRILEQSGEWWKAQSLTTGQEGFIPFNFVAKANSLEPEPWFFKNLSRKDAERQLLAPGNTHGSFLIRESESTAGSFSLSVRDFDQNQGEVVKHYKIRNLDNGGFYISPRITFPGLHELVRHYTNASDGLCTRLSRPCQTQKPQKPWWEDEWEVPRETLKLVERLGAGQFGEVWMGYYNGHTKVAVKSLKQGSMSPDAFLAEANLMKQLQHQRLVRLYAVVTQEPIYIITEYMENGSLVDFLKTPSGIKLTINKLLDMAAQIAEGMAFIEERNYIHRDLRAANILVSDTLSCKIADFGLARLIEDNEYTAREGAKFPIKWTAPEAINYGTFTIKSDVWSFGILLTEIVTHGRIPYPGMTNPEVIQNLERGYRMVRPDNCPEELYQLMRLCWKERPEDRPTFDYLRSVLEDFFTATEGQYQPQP
Chain of UniProt P35348 (whole entry, looked up): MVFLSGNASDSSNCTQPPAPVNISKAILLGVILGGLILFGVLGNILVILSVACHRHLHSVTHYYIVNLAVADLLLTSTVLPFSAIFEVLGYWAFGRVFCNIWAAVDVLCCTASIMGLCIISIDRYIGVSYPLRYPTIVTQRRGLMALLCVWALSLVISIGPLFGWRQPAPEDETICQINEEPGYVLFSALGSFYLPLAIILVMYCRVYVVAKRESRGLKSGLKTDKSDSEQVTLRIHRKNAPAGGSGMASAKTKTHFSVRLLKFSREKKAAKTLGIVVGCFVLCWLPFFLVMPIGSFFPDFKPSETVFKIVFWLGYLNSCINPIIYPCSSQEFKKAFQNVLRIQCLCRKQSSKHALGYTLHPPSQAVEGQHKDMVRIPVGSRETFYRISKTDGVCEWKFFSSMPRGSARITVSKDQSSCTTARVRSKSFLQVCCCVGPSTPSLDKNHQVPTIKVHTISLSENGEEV
Chain of UniProt Q86YV6 (whole entry, looked up): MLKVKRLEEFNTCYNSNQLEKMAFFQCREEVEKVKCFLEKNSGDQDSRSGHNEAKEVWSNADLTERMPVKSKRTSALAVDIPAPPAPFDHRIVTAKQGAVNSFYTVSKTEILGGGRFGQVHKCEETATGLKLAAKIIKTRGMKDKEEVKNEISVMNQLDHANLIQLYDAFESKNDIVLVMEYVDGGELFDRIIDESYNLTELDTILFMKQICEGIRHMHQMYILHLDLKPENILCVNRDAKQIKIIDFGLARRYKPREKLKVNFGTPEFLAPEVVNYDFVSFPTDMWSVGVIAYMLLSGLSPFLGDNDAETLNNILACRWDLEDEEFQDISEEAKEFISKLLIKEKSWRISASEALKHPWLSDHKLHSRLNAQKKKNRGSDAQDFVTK
Chain of UniProt P07948 (whole entry, looked up): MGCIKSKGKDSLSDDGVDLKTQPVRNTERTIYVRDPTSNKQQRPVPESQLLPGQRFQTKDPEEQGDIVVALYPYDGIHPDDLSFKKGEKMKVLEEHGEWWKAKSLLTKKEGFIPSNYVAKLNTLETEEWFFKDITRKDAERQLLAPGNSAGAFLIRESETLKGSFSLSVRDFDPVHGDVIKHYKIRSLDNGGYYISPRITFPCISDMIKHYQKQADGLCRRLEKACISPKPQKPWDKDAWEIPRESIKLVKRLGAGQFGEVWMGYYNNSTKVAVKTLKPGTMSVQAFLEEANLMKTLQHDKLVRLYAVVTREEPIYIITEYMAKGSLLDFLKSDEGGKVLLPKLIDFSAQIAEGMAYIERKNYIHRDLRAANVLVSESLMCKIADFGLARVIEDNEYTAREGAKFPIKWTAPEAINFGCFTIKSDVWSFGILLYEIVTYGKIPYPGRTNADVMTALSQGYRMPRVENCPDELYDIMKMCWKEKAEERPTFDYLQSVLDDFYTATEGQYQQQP

SMILES | target | assay | system | setting | measurement | result
CNC[C@H](O)c1cccc(OCCOCCOCC#Cc2cccc(Cn3c(-c4ccccc4)c(-c4ccccc4)c4c(=N)n([C@H]5CC[C@H](O)CC5)cnc43)c2)c1 | ADRA1A (Homo sapiens, UniProt P35348) | degrader, immunoblotting | PC-3 | 24 h | DC50 | 53.5 nM
Fc1ccc(OCC2CN(Cc3cn4ccccc4n3)CCC2(F)F)cc1F (stereo not drawn) | DRD4 | ligand displacement, radioligand |  | cell membranes | Ki | 46.8 nM
CCc1c(C(=O)Nc2ccc3c(c2)CN(C2CCC(=O)NC2=O)C3=O)[nH]c2c(CO)cccc12 (stereo not drawn) | GSPT1 | protein level, degrader, luciferase |  |  | DC50 | > 10000 nM
Cc1c[nH]c2nccc(-c3ccc(C(=O)N[C@@H]4c5c(F)cc(C(F)F)cc5C[C@@H]4O)cn3)c12 | MYLK4 (Homo sapiens, UniProt Q86YV6) | binding, competition with immobilised ligand |  |  | Kd | 320 nM
FC1(F)CCN(Cc2ncn3ccccc23)CC1COc1cccc(Cl)n1 (stereo not drawn) | DRD4 | ligand displacement, radioligand |  | cell membranes | Ki | 1010 nM
CCOC(=O)[C@@H](CCSC)NC(=O)c1ccc(C2CC2)c(Cc2ccc(F)cc2)n1 | CNR1 | ligand displacement, radioligand |  | cell membranes | Ki | 153 nM
Cc1nn(-c2cccc(N)c2)c(=O)c2cnc(Nc3ccc(N4CCNCC4)cc3)nc12 | SIK2 (Homo sapiens, UniProt Q9H0K1) | enzyme activity, inhibitor |  |  | IC50 | 331 nM
Fc1ccc(OCC2CN(Cc3cn4ccccc4n3)CCC2(F)F)cc1 (stereo not drawn) | DRD4 | ligand displacement, radioligand |  |  | Ki | 73 nM
NCCCC[C@H](NC(=O)[C@H](C/C=C/C[C@H](NC(=O)[C@@H]1CCCN1)C(=O)N[C@@H](CCCCN)C(=O)NCCCN)NC(=O)[C@@H]1CCCN1)C(=O)NCCCN | (CUG)10 RNA | SPR |  |  | Kd | 423 nM
CCc1c(C(=O)Nc2ccc3c(c2)CN(C2CCC(=O)NC2=O)C3=O)[nH]c2c(NC(C)=O)cccc12 (stereo not drawn) | LCK/CRBN (Homo sapiens, UniProt P06239+Q96SW2) | degrader, HiBiT, measured: LCK-HiBiT | KOPTK1 | 24 h | DC50 | 4.7 ± 1.6 nM
CC1(C)C[C@@H](Nc2cccc(-c3sc(C(=O)O)c(OCC(=O)O)c3Cl)c2)CCN1S(=O)(=O)Cc1cccc(NC(=O)CN2CCC(c3ccc4c(c3)oc(=O)n4C3CCC(=O)NC3=O)CC2)c1 (stereo partly drawn) | Tyrosine-protein phosphatase non-receptor type 1 (Mus musculus, UniProt P35821) | degrader, Western blot | B16-F10 | 24 h | DC50 | 83 nM
CCc1nc2cc3ccccc3cc2cc1C(=O)N1CCC[C@H]1C(=O)N[C@@H](CCC/C=C/CCC[C@H](NC(=O)[C@@H]1CCCN1C(=O)c1cc2cc3ccccc3cc2nc1CC)C(=O)N[C@@H](CCCCN)C(=O)NCCCN)C(=O)N[C@@H](CCCCN)C(=O)NCCCN | (CUG)10 RNA | SPR |  |  | Kd | 16 nM
Fc1cccc(OCC2CN(Cc3ncn4ccccc34)CCC2(F)F)n1 (stereo not drawn) | DRD4 | ligand displacement, radioligand |  | cell membranes | Ki | 705 nM
O=C(O)CC12CC3CC(CC(C3)C1)C2 | DNA topoisomerase 2-binding protein 1, BRCT7-8 domains; R1314A (TOPBP1, Homo sapiens, UniProt Q92547, R1314A) | NMR titration |  | not saturated | Kd | > 400000 nM
CCc1nc2cc3ccccc3cc2cc1C(=O)N1CCC[C@H]1C(=O)N[C@@H](C/C=C/C[C@H](NC(=O)[C@@H]1CCCN1C(=O)c1cc2cc3ccccc3cc2nc1CC)C(=O)N[C@@H](CCCCN)C(=O)NCCCN)C(=O)N[C@@H](CCCCN)C(=O)NCCCN | (CUG)10 RNA | SPR |  |  | Kd | 88 nM
CCOC(=O)C(CC)(CCCSCCOCCOCCN)NC(=O)c1ccc(C2CC2)c(Cc2ccc(F)cc2)n1 (racemic) | CNR1 | ligand displacement, radioligand |  | cell membranes | Ki | 433 nM
Fc1ccc(OCC2CN(Cc3ncc4ccccn34)CCC2(F)F)cc1F (stereo not drawn) | DRD4 | ligand displacement, radioligand |  |  | Ki | 135 nM
CCN(CC)CC(=O)Nc1cccc(-n2cc(-c3ccc4ccc(-c5cn(-c6cccc(NC(=O)CN(CC)CC)c6)nn5)cc4c3)nn2)c1 | LYN (Homo sapiens, UniProt P07948) | enzyme activity, inhibitor |  |  | IC50 | > 10000 nM
Cn1ncc2cc(CN3CCC(F)(F)C(COc4cccc(F)c4)C3)ccc21 (stereo not drawn) | DRD4 | ligand displacement, radioligand |  | cell membranes | Ki | 3.02 nM
CCc1nc2cc3ccccc3cc2cc1C(=O)N[C@@H](CCCCN)C(=O)N[C@@H](C/C=C\C[C@H](NC(=O)[C@H](CCCCN)NC(=O)c1cc2cc3ccccc3cc2nc1CC)C(=O)N1CCC[C@H]1C(=O)NCCCN)C(=O)N1CCC[C@H]1C(=O)NCCCN | (CUG)10 RNA | SPR |  |  | Kd | 91.8 nM
Cn1ncc2cc(CN3CCC(F)(F)C(COc4ccc(C#N)cc4)C3)ccc21 (stereo not drawn) | DRD4 | ligand displacement, radioligand |  |  | Ki | 8.9 nM
CCc1c(C(=O)Nc2ccc3c(c2)CN(C2CCC(=O)NC2=O)C3=O)[nH]c2c(CNC(C)=O)cccc12 (stereo not drawn) | GSPT1 | protein level, degrader, luciferase |  |  | DC50 | > 10000 nM
Cn1cnc2cc(CN3CCC(F)(F)C(COc4ccc(F)c(F)c4)C3)ccc21 (stereo not drawn) | DRD4 | ligand displacement, radioligand |  | cell membranes | Ki | 4.8 nM
CCn1nc(Cl)c2c1-c1cnc(N)c(c1)O[C@H](C)c1cc(F)ccc1-c1nn(C)cc1C2 | TNK2 (Homo sapiens, UniProt Q07912) | enzyme activity, inhibitor, radiometric |  |  | IC50 | 170 nM

For quick reference, copied from above:
SMILES | target | assay | system | setting | measurement | result
O=C(O)CC12CC3CC(CC(C3)C1)C2 | DNA topoisomerase 2-binding protein 1, BRCT7-8 domains; R1314A (TOPBP1, Homo sapiens, UniProt Q92547, R1314A) | NMR titration |  | not saturated | Kd | > 400000 nM
